Experimental data collected from several papers.
Values joined by “and” are separate records of one study, mostly repeats; a detail may differ.
Cell line: BT-549

Structure (SMILES) | test | conditions | how to read | measurement | value
CCn1cc(-c2cc(Cn3ccoc3=N)cc3c2CCN([C@@H](C)c2cc(OC)ccn2)C3=O)c(C(F)(F)F)n1 | cell growth, inhibitor | 120 h | – | EC50 | 1.23 µM
CCCN1CCN(c2ccc3[nH]c(-c4ccc5[nH]c(-c6ccc(C(F)(F)F)cc6)nc5c4)nc3c2)CC1 | SRB | 10 µM, 48 h | – | growth percent | 73.5%
Cc1cc(-c2ccccc2)n(-c2nc(-c3ccc(Cl)cc3)c3c(NC(=O)c4ccccc4)nnc-3[nH]2)n1 | SRB | 10 µM, NCI60 single-dose screen | baseline: untreated | cell growth | 100%
CCCCN1CCN(c2ccc3[nH]c(-c4ccc5[nH]c(-c6cc(OC)c(OC)c(OC)c6)nc5c4)nc3c2)CC1 | SRB | 10 µM, 48 h | – | growth percent | 80.2%
C#C[C@@]1(O)[C@@H](CO)O[C@@H](n2cc(I)c3c(N)ncnc32)[C@@H]1O | SRB | NCI-60 screen | – | TGI | 3.26 µM and 4.94 µM
O=C1NCCc2[nH]c(-c3ccncc3)cc21 | MTS | NCI60 panel | – | IC50 | 0.705 µM
CN1CCN(c2ccc3[nH]c(-c4ccc5[nH]c(-c6ccc(C(F)(F)F)cc6)nc5c4)nc3c2)CC1 | SRB | 10 µM, 48 h | – | growth percent | 84.6%
Cc1cc(C)n(C(=S)[S][Au][PH](CCCCCC[PH]([Au][S]C(=S)n2nc(C)cc2C)(c2ccccc2)c2ccccc2)(c2ccccc2)c2ccccc2)n1 | cell growth, NCI-60 screen | breast cancer | – | log10 TGI | -5.07
CCn1cc(-c2cc(Cn3ccnc3)cc3c2CCN([C@H](c2cc(OC)ccn2)C2CC2)C3=O)c(C(F)(F)F)n1 | cell growth, inhibitor | 120 h | – | EC50 | 13.8 µM
C#C[C@@]1(O)[C@@H](CO)O[C@@H](n2ccc3c(N)ncnc32)[C@@H]1O | SRB | NCI-60 screen | – | TGI | 3.64 µM
Cn1cncc1C1=CN(c2ncnc3[nH]cnc23)CCS1 | – | – | – | TGI | 35.5 µM
CCCCN1CCN(c2ccc3[nH]c(-c4ccc5[nH]c(-c6ccc(OCC)c(OCC)c6)nc5c4)nc3c2)CC1 | SRB | 10 µM, 48 h | – | growth percent | -23%
C#C[C@@]1(O)[C@@H](CO)O[C@@H](n2cc(F)c3c(N)ncnc32)[C@@H]1O | SRB | NCI-60 screen | – | TGI | 4.18 µM

For quick reference, copied from above:
Structure (SMILES) | test | conditions | how to read | measurement | value
CCCN1CCN(c2ccc3[nH]c(-c4ccc5[nH]c(-c6ccc(C(F)(F)F)cc6)nc5c4)nc3c2)CC1 | SRB | 10 µM, 48 h | – | growth percent | 73.5%
Cc1cc(-c2ccccc2)n(-c2nc(-c3ccc(Cl)cc3)c3c(NC(=O)c4ccccc4)nnc-3[nH]2)n1 | SRB | 10 µM, NCI60 single-dose screen | baseline: untreated | cell growth | 100%
